Assay results of several laboratories.
Parts stem from different laboratories: compare values within a part only.

Sample 1 — technique: RNAcompete; molecule type: RNA; matrix: in vitro; concentration: 20 nM; notes: 7-mer, probes averaged, single round; baseline: mean of 7-mers; reading: higher = stronger binding
Target: PABPC1L2, full length, GST fusion (mouse, UniProt A0ABA7IW68)
Target sequence (chain): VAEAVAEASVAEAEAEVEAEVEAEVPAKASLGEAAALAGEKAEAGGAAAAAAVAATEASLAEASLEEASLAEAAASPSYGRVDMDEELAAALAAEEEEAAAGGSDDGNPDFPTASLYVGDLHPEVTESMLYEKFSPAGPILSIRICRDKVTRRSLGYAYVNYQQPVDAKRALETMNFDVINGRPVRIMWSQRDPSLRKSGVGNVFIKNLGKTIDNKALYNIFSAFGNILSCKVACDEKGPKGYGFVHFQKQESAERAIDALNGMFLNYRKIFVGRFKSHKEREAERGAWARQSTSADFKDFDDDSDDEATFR
Strand | 7-mer Z-score
GCAGCGC | -0.0536
AUAUGCA | -0.0681
GAGAGAA | 0.177
ACAGCAC | 0.122
UGGUACG | 0.0424
CCGCUGU | -0.289
UAUUAAC | -0.137
CUCACGU | -0.282

Sample 2 — effect on: enzyme activity; mode: inhibitor; concentration: 20 µM
Target: Replicase polyprotein 1ab, polymerase (rep, Severe acute respiratory syndrome coronavirus 2, UniProt P0DTD1)
Compound | inhibition [%]
Cc1oc(=O)oc1COC(=O)C1=C([C@H]2CCCO2)S[C@@H]2[C@@H]([C@@H](C)O)C(=O)N12 | -0.58
CC(C)NCC(O)c1ccc([N+](=O)[O-])cc1 (stereo not shown) | -1.85
CNC(=O)c1ccccc1Sc1ccc2c(/C=C/c3ccccn3)n[nH]c2c1 | 14.9
OC1(c2ccc(Cl)c(C(F)(F)F)c2)CCN(CCCC(c2ccc(F)cc2)c2ccc(F)cc2)CC1 | -1.36
Cc1cnc(-c2cnc(NCCNc3ccc(C#N)cn3)nc2-c2ccc(Cl)cc2Cl)[nH]1 | -3.78
CCc1c(-c2ccccc2)c(-c2ccccc2)nn1-c1ccccc1-c1cccc(OCC(=O)O)c1 | -0.83
CC[C@H]1CN2CC[C@H]1C[C@@H]2[C@@H](O)c1ccnc2ccc(OC)cc12 | 0.53
CCC(=O)O[C@]1(C(=O)COC(C)=O)CC[C@H]2[C@@H]3C[C@H](C)C4=CC(=O)C=C[C@]4(C)[C@H]3[C@@H](O)C[C@@]21C | 0.27
CCCCCCCCCCCCCCCC(=O)OCCC1CCN(CCCN2c3ccccc3Sc3ccc(S(=O)(=O)N(C)C)cc32)CC1 | -1.67
CC(CCc1ccccc1)NC(C)C(O)c1ccc(O)cc1 (stereo not shown) | 16.8
O=C(NC(NC(=S)Nc1ccc(F)c([N+](=O)[O-])c1)C(Cl)(Cl)Cl)C(c1ccccc1)c1ccccc1 (stereo not shown) | 5.7
COc1ccc(CN(CCN(C)C)c2ncccn2)cc1 | -4.98
CN(C)C(=O)[C@H](O)[C@H](Cc1ccccc1)NC(=O)c1cc2cc(Cl)ccc2[nH]1 | -9.9
Nc1ccc(C(=O)O)cc1 | 7.43
COc1cccc(N(C)C(=S)Oc2ccc3c(c2)CCCC3)n1 | -3.35
CC[C@@H](Cc1c(I)cc(I)c(N)c1I)C(=O)O | 4.63
CCC(=O)OCC(=O)[C@@]1(OC(=O)CC)[C@@H](C)C[C@H]2[C@@H]3CCC4=CC(=O)C=C[C@]4(C)[C@@]3(Cl)[C@@H](O)C[C@@]21C | 5.02

Sample 3 — cell line: HEK-293T; effect on: pseudovirus infection; technique: FDA-approved drug library screen; organism: VSV pseudotyped with SARS-CoV-2 spike; concentration: 10 µM; time: 16 h; baseline: vehicle-treated
Compound | GFP-positive cells [%]
COc1cc(C(C)=O)ccc1OCCCN1CCC(c2noc3cc(F)ccc23)CC1 | 76.9
Cc1ccc(-c2cc(C(F)(F)F)nn2-c2ccc(S(N)(=O)=O)cc2)cc1 | 92.5
CN(C)CC[C@@H](c1ccc(Cl)cc1)c1ccccn1 | 66.3

Sample 4 — effect on: enzyme activity; mode: inhibitor; concentration: 20 µM; notes: hit confirmation, no DTT
Target: Replicase polyprotein 1ab, main protease (rep, Severe acute respiratory syndrome coronavirus 2, UniProt P0DTD1)
Compound | inhibition
CO/N=C(\C(=O)N[C@@H]1C(=O)N2C(C(=O)O)=C(CSC(=O)c3ccco3)CS[C@H]12)c1csc(N)n1.Cl | 73.1%
Cc1cc(-c2ccc(/N=N/c3ccc4c(S(=O)(=O)O)cc(S(=O)(=O)O)c(N)c4c3O)c(C)c2)ccc1/N=N/c1ccc2c(S(=O)(=O)O)cc(S(=O)(=O)O)c(N)c2c1O | 102%
N[C@@H](C(=O)N[C@@H]1C(=O)N2C(C(=O)O)=C(Cl)CS[C@H]12)c1ccccc1 | 74.4%
CN1CC[C@@]2(C)c3cc(O)ccc3N(C)[C@@H]12 | 75.5%

Sample 5 — technique: protein-binding microarray; molecule type: double-stranded DNA, one strand shown; matrix: in vitro; concentration: 2540 nM top; notes: 60-bp whole probe; together with: salmon DNA 0.4 mg/ml; baseline: random background probes; reading: higher = stronger binding
Target: Interferon regulatory factor 3, full length, phosphomimetic (IRF3, Homo sapiens, UniProt Q14653, residues 1-427, S386D/S396D/S398D/S402D/T404D/S405D)
Constant ends, left off below: GCCTAGCAC … GTGCTAGGTCTTGATTCGCTTGACGCTGCTG
Residues (chain): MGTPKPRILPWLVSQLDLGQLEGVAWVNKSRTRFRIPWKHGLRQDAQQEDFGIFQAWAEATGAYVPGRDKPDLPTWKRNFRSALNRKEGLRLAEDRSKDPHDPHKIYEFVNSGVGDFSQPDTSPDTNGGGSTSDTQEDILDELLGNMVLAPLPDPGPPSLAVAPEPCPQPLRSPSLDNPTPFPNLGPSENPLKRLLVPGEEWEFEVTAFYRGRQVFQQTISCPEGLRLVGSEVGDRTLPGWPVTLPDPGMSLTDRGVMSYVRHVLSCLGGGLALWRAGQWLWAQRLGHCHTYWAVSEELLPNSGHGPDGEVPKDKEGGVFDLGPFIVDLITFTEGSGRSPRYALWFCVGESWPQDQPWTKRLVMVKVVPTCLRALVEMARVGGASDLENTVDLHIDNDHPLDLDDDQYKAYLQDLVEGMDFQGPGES
Strand | fitted relative affinity
TTAGAACTGAGTTGCGATTA | 0.408 z-score
GACGGTCTCCTTCTCCCGAC | 4.39 z-score
TTAGATATCAGTCGCGATTA | -0.00798 z-score
TCAGTGATAGCTCTGGTACT | -0.824 z-score
TTAGGACTGCGTCTCCTTTA | -0.184 z-score
GGGTCTCTTGTTCTCTCTGG | -0.0661 z-score
TTAGATTTCAGTTCCGATTC | 4.43 z-score
TCACATTTTTCCCTCTGACT | 1.66 z-score

Repeated from above (sample 3):
Compound | GFP-positive cells [%]
Cc1ccc(-c2cc(C(F)(F)F)nn2-c2ccc(S(N)(=O)=O)cc2)cc1 | 92.5
CN(C)CC[C@@H](c1ccc(Cl)cc1)c1ccccn1 | 66.3
COc1cc(C(C)=O)ccc1OCCCN1CCC(c2noc3cc(F)ccc23)CC1 | 76.9
